Assay results of several laboratories.
Lines come from different studies, so protocols differ. “And” joins repeats or separate records; there may be more than shown. ± marks the error that the study gave.
Pleckstrin homology domain-containing family A member 7: Pleckstrin homology domain-containing family A member 7 (Homo sapiens, UniProt Q6IQ23)
HSP90AA1: Heat shock protein HSP 90-alpha (HSP90AA1, Homo sapiens, UniProt P07900)
Abl1 SH2 domain: Tyrosine-protein kinase ABL1, SH2 domain (Abl1, Mus musculus, UniProt P00520)
Chain of UniProt P00520 (whole entry, looked up): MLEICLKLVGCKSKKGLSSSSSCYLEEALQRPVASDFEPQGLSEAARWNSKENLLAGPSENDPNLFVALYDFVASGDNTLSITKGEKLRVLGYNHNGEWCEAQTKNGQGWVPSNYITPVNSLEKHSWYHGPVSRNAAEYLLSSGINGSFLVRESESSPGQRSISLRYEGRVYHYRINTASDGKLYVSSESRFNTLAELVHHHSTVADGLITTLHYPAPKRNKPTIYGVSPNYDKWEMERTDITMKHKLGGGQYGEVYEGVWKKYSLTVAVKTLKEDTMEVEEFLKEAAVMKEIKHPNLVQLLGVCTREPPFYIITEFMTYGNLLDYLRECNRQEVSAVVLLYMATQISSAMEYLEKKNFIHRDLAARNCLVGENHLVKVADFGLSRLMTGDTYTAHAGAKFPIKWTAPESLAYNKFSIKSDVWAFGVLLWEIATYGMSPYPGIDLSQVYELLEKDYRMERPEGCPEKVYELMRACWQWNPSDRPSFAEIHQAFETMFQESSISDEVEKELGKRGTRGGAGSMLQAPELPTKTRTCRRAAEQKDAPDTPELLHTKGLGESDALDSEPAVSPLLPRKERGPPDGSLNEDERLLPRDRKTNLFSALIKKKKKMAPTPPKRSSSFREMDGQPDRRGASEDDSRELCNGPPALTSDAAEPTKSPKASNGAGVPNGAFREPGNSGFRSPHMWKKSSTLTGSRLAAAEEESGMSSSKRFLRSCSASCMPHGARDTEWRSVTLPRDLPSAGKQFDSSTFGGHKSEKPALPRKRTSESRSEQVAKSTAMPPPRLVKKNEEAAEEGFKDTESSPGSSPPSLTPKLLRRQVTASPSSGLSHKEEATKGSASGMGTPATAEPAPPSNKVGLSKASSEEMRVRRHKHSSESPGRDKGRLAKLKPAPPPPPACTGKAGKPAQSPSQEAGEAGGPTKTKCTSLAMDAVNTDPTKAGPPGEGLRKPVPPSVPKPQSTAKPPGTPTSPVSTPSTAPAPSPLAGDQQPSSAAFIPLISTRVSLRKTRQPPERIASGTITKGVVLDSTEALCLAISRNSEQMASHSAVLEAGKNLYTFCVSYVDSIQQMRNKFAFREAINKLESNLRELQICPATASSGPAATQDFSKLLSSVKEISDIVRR
MTAP: S-methyl-5'-thioadenosine phosphorylase (MTAP, Homo sapiens, UniProt Q13126)
Chain of UniProt Q13126 (whole entry, looked up): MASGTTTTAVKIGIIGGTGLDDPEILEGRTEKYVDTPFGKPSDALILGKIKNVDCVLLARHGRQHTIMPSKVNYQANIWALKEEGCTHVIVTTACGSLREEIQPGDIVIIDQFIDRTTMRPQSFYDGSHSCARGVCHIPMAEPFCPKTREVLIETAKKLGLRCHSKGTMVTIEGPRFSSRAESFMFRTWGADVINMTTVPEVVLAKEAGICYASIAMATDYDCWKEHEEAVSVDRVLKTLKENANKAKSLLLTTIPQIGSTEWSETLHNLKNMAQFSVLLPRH
CYP2A6: Cytochrome P450 2A6 (CYP2A6, Homo sapiens, UniProt P11509)
Chain of UniProt P11509 (whole entry, looked up): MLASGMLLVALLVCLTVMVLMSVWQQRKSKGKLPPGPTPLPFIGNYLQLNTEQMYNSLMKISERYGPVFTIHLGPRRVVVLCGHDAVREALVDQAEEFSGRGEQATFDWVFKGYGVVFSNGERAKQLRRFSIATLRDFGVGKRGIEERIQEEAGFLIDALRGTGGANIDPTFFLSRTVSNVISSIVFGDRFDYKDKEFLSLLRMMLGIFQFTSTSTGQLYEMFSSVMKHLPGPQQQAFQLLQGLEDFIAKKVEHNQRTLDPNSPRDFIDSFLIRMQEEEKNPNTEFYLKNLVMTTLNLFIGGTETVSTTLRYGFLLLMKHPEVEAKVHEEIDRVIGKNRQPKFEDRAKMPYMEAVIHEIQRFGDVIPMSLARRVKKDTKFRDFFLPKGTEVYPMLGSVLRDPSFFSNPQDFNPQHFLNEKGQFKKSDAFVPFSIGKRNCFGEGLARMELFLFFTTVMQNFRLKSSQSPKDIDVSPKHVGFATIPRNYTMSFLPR
B1: α-TTP F165D/M209D; sequence looked up; chain MAEARSQPSAGPQLNALPDHSPLLQPGLAALRRRAREAGVPLAPLPLTDSFLLRFLRARDFDLDLAWRLLKNYYKWRAECPEISADLHPRSIIGLLKAGYHGVLRSRDPTGSKVLIYRIAHWDPKVFTAYDVFRVSLITSELIVQEVETQRNGIKAIFDLEGWQDSHAFQITPSVAKKIAAVLTDSFPLKVRGIHLINEPVIFHAVFSDIKPFLTEKIKERIHMHGNNYKQSLLQHFPDILPLEYGGEEFSMEDICQEWTNFIMKSEDYLSSISESIQ
B2: Pcf11 CID D117A; chain DTEVIVKDFNSILEELTFNSRPIITTLTKLAEENISCAQYFVDAIESRIEKCMPKQKLYAFYALDSICKNVGSPYTIYFSRNLFNLYKRTYLLVDNTTRTKLINMFKLWLNPNATGLPLFEGSALEKIEQFLIKAS
B3: Pcf11 CID D117K; chain DTEVIVKDFNSILEELTFNSRPIITTLTKLAEENISCAQYFVDAIESRIEKCMPKQKLYAFYALDSICKNVGSPYTIYFSRNLFNLYKRTYLLVDNTTRTKLINMFKLWLNPNKTGLPLFEGSALEKIEQFLIKAS
B4: α-TTP I202D; sequence looked up; chain MAEARSQPSAGPQLNALPDHSPLLQPGLAALRRRAREAGVPLAPLPLTDSFLLRFLRARDFDLDLAWRLLKNYYKWRAECPEISADLHPRSIIGLLKAGYHGVLRSRDPTGSKVLIYRIAHWDPKVFTAYDVFRVSLITSELIVQEVETQRNGIKAIFDLEGWQFSHAFQITPSVAKKIAAVLTDSFPLKVRGIHLINEPVDFHAVFSMIKPFLTEKIKERIHMHGNNYKQSLLQHFPDILPLEYGGEEFSMEDICQEWTNFIMKSEDYLSSISESIQ
B5: α-TTP F165A; sequence looked up; chain MAEARSQPSAGPQLNALPDHSPLLQPGLAALRRRAREAGVPLAPLPLTDSFLLRFLRARDFDLDLAWRLLKNYYKWRAECPEISADLHPRSIIGLLKAGYHGVLRSRDPTGSKVLIYRIAHWDPKVFTAYDVFRVSLITSELIVQEVETQRNGIKAIFDLEGWQASHAFQITPSVAKKIAAVLTDSFPLKVRGIHLINEPVIFHAVFSMIKPFLTEKIKERIHMHGNNYKQSLLQHFPDILPLEYGGEEFSMEDICQEWTNFIMKSEDYLSSISESIQ
Chain of UniProt P33424 (whole entry, looked up): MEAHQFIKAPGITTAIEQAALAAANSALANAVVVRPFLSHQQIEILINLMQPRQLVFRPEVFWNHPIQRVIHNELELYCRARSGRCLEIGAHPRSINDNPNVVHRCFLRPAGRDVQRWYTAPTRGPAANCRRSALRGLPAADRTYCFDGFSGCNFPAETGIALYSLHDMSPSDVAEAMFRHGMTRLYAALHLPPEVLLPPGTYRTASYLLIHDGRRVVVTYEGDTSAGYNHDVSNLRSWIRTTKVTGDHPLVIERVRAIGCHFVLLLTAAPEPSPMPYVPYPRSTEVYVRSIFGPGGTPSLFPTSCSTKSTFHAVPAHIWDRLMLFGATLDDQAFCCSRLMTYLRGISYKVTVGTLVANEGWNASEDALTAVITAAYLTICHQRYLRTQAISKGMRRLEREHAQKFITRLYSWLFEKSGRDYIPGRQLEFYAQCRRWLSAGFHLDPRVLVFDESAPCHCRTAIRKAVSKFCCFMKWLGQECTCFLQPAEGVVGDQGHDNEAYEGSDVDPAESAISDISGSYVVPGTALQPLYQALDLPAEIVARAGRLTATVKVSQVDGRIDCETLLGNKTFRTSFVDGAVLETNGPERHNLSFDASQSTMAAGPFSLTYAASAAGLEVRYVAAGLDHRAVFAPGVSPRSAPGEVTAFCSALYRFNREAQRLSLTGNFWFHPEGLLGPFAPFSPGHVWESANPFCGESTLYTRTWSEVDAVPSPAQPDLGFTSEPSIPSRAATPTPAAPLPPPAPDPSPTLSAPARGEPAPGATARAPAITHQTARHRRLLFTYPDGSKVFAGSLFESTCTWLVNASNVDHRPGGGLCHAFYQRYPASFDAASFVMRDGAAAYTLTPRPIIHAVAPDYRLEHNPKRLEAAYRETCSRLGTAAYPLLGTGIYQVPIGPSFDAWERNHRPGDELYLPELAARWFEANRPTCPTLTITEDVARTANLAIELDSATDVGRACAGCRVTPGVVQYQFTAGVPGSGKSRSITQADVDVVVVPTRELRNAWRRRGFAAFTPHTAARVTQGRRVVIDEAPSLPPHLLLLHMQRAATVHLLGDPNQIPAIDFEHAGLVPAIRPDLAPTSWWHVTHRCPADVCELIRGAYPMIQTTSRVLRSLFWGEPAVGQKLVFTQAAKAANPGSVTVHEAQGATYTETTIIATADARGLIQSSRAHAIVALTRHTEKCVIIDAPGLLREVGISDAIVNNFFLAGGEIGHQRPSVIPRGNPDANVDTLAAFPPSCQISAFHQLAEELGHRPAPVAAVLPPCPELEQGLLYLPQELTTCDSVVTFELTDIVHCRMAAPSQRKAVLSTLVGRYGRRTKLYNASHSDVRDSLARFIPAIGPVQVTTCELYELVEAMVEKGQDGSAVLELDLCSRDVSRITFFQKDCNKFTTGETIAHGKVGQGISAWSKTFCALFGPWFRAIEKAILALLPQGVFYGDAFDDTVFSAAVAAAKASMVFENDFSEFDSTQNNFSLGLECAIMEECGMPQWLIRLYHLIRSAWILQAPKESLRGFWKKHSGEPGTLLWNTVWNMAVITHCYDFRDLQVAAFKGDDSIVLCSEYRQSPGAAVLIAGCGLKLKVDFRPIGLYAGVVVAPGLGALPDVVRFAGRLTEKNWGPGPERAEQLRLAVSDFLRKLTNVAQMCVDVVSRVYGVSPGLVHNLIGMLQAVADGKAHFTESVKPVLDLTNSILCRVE
Chain of UniProt Q9Y253 (whole entry, looked up): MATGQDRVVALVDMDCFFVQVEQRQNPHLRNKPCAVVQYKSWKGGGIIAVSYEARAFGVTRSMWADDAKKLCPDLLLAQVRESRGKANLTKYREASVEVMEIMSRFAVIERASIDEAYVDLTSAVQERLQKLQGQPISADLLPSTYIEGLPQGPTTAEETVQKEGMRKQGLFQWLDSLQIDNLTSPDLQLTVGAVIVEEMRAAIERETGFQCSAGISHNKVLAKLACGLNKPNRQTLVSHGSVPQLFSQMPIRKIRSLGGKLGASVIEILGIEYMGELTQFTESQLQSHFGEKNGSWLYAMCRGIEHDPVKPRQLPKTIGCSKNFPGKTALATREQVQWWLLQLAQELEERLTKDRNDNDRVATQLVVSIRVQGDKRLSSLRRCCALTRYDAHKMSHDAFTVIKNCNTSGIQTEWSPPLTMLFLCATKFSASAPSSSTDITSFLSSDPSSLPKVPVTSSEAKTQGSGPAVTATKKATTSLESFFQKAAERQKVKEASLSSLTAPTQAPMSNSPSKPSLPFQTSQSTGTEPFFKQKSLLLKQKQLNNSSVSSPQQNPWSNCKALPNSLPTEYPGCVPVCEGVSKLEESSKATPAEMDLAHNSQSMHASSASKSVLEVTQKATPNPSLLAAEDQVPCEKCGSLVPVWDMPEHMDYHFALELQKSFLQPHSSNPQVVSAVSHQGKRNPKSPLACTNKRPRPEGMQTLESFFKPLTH
Chain of UniProt Q06393 (whole entry, unmodified, looked up): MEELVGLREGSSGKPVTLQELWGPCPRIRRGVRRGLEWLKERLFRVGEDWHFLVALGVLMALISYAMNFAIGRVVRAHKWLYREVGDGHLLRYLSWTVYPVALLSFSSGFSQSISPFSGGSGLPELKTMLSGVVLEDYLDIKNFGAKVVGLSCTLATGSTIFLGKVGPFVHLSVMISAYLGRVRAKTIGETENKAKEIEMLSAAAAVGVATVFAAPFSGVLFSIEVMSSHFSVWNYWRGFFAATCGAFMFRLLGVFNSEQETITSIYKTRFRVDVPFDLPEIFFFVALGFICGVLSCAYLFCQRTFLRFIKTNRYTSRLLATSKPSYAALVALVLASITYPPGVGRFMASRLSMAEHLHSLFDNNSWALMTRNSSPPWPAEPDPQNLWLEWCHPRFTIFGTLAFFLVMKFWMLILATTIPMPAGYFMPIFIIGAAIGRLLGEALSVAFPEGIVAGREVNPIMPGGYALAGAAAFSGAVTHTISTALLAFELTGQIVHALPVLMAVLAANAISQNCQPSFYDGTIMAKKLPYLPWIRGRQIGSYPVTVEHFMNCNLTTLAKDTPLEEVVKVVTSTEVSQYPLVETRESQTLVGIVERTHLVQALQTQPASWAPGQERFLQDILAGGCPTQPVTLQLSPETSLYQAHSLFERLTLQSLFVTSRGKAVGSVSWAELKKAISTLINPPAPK

`O=C(O)c1cccnc1Nc1cccc(C(F)(F)F)c1` has a Kd of roughly 33 µM (Chloride channel protein ClC-Ka (Clcnka, Rattus norvegicus, UniProt Q06393, F256A); chloride current, blocker, voltage clamp; Xenopus oocytes; without barttin).
For `C[n+]1cccc2cc(C=NNC(=O)c3ccc4ccc5ccc(C(=O)NN=Cc6ccc7c(ccc[n+]7C)c6)nc5c4n3)ccc21`, the Kd was 0.0197 ± 0.0032 µM (G-quadruplex DNA 22CTA (human); binding, fluorimetric titration; 100 mM KCl buffer; pH 7.2, together with: 5'-Cy5-labelled G4 2 nM).
`NC(=O)c1ncn([C@@H]2O[C@H](CO)[C@@H](O)[C@H]2O)n1` gave a Kd of ~0.03 µM and 0.03 µM (Non-structural polyprotein pORF1, RNA-dependent RNA polymerase (Hepatitis E virus genotype 1, UniProt P33424); binding, microscale thermophoresis).
`Nc1nc2c(nc(SCCNc3ccc([N+](=O)[O-])c4nonc34)n2[C@@H]2O[C@@H]3COP(=O)(O)O[C@@H]3C2O)c(=O)[nH]1` (stereo partly shown) has a Kd of 2.7 µM (Cyclic nucleotide-gated potassium channel (Spirochaeta thermophila, UniProt G0GA88); binding, fluorescence titration; amphipol A8-35; pH 7.4, room temperature).
The Kd of `CCCCCCCC(=O)OC[C@H](COP(=O)(O)O[C@@H]1[C@H](O)[C@H](OP(=O)(O)O)[C@@H](O)[C@H](OP(=O)(O)O)[C@H]1O)OC(=O)CCCCCCC` is reported as 4 µM (Pleckstrin homology domain-containing family A member 7; binding, ITC; pH 7.6).
`C[C@@](O)(CCOP(=O)(O)O)CC(=O)O` gave a Kd of less than 20 µM (PMVK (Homo sapiens, UniProt Q15126); binding; pH 6.5, 25 °C, ternary complex formation, together with: saturating Mg-ADP).
`CO[C@H]1/C=C\C=C(/C)C(=O)NC2=CC(=O)C(NCCCCCCNC(=S)Nc3ccc(-c4c5ccc(=O)cc-5oc5cc(O)ccc45)c(C(=O)O)c3)=C(C[C@@H](C)C[C@H](OC)[C@H](O)[C@@H](C)/C=C(\C)[C@@H]1OC(N)=O)C2=O` has a Kd of 0.509 µM (HSP90AA1; binding, fluorescence polarization; full length protein).
For `fibrinogen`, the Kd was 0.01 µM (Integrin alpha-M/beta-2 (Homo sapiens, UniProt P05107+P11215); binding).
The Kd of `B1 (α-TTP F165D/M209D)` is reported as 0.029 µM (alpha-tocopherol transfer protein variants; binding, fluorescence titration; together with: NBD-Toc).
The Kd of `[3H]dihydroalprenolol` is reported as 0.00192 ± 7e-05 µM (ADRB1 (Meleagris gallopavo, UniProt P07700); radioligand, saturation binding; DDM-solubilised E. coli membranes; wild-type receptor, turkey).
`CCCCCCCC(=O)OC[C@H](COP(=O)(O)O[C@H]1[C@H](O)[C@@H](OP(=O)(O)O)[C@H](OP(=O)(O)O)[C@@H](OP(=O)(O)O)[C@H]1O)OC(=O)CCCCCCC` has a Kd of 8 µM (Pleckstrin homology domain-containing family A member 7; binding, ITC; pH 7.6).
With `CO[C@H]1C[C@H](C)Cc2cc(O)cc(c2)NC(=O)/C(C)=C/CC[C@H](OC)[C@@H](OC(N)=O)/C(C)=C/[C@H](C)[C@H]1O` the Kd was 0.036 µM (HSP90AA1; binding, competitive binding).
With `CCCCCCCC(=O)OC[C@H](COP(=O)(O)O[C@@H]1[C@H](O)[C@H](O)[C@@H](OP(=O)(O)O)[C@H](OP(=O)(O)O)[C@H]1O)OC(=O)CCCCCCC` the Kd was 500 ± 70 µM (Abl1 SH2 domain; HSQC NMR titration; SH2 domain, 135 mM KCl).
With `[I-].[K+]` the Kd was 74000 µM (SLC4A1 (Homo sapiens, UniProt P02730); 36Cl exchange flux, inhibitor, Dixon plot; human red blood cells; pH 12.4 external, 0 °C, internal Cl 294 mM, CAPS buffer).
For `B2 (Pcf11 CID D117A)`, the Kd was 40 µM (Saccharomyces cerevisiae CTD-binding protein; fluorescence anisotropy competition; pH 7.4, first binding event, together with: four-heptad Ser2P CTD peptide).
`CC[N+](CC)(CC)CC` gave a Kd of 2440 ± 640 µM (Kcnu1, Slo1 N-terminal chimera (Mus musculus, UniProt O54982); ion current, blocker, cytosolic application; pH 8.5, closed-channel block, together with: Ca2+ 0).
`C[S+](CC[C@H](N)C(=O)O)C[C@H]1O[C@@H](n2cnc3c(N)ncnc32)[C@H](O)[C@@H]1O` (stereo partly shown) gave a Kd of 0.44 ± 0.09 µM (tRNA (guanine(37)-N(1))-methyltransferase Trm5b (trm5b, Methanocaldococcus jannaschii, UniProt Q58293); binding, substrate, rapid quench burst; pH 8.0, 55 °C, together with: tRNA(Cys)).
With `CCCC(=O)OCC(COP(=O)(O)OC1C(O)C(OP(=O)(O)O)C(O)C(OP(=O)(O)O)C1O)OC(=O)CCC` (stereo not shown) the Kd was 90 ± 2 µM (Abl1 SH2 domain; HSQC NMR titration; SH2 domain, no KCl).
`CCCSC[C@H]1N[C@@H](c2c[nH]c3c(N)ncnc23)[C@H](O)[C@@H]1O` gave a Kd of 0.9 ± 0.6 µM (MTAP; binding third site, isothermal titration calorimetry).
With `C[C@]12C=CC(=O)C=C1CC[C@@H]1[C@@H]2[C@@H](O)C[C@@]2(C)[C@H]1CC[C@]2(O)C(=O)CO` the Kd was 0.026 ± 0.003 µM (mouse anti-cortisol Fab 17; native MS titration; 200 mM ammonium acetate; 1.5% DMSO, 0.5% methanol, together with: Fab 100 nM).
For `Cc1cn([C@H]2C=C[C@@H](COP(=O)(O)OP(=O)(O)OP(=O)(O)O)O2)c(=O)[nH]c1=O`, the Kd was 11.6 ± 2.3 µM (Gag-Pol polyprotein, reverse transcriptase (gag-pol, Human immunodeficiency virus type 1 group M subtype B, UniProt P04585); nucleotide binding, pre-steady-state kinetics; together with: 6 mM Mg2+).
For `CC(=O)N[C@H]1[C@H](O[C@H]2[C@@H](O)[C@@H](CO)O[C@H](O[C@@H]3[C@H](O)[C@@H](O)[C@H](O[C@H]4[C@H](O)[C@@H](O)[C@H](O)O[C@@H]4CO)O[C@@H]3CO)[C@@H]2O)O[C@H](CO)[C@H](O)[C@@H]1O[C@@H]1O[C@H](CO)[C@H](O)[C@H](O)[C@H]1O[C@@H]1O[C@@H](C)[C@@H](O)[C@@H](O)[C@@H]1O`, the Kd was 21 µM (RNASE1 (Bos taurus, UniProt P61823, A45C); binding; pH 7.4).
With `Nc1nc2c(c(=O)[nH]1)NC(CNc1ccc(C(=O)N[C@@H](CCC(=O)N[C@@H](CCC(=O)N[C@@H](CCC(=O)N[C@@H](CCC(=O)N[C@@H](CCC(=O)O)C(=O)O)C(=O)O)C(=O)O)C(=O)O)C(=O)O)cc1)CN2` (mixture of isomers) the Kd was 4.02 ± 0.92 µM (Lysine-specific histone demethylase 1A, residues 171-852 (KDM1A, Homo sapiens, UniProt O60341); back-scattering interferometry; N-terminal truncated LSD1).
The Kd of `B3 (Pcf11 CID D117K)` is reported as 130 µM (Saccharomyces cerevisiae CTD-binding protein; fluorescence anisotropy competition; pH 7.4, second binding event, together with: four-heptad Ser2P CTD peptide).
With `Nc1ccn([C@H]2C[C@H](O)[C@@H](COP(=O)(O)OP(=O)(O)OP(=O)(O)O)O2)c(=O)n1` the Kd was 32 ± 15 µM (DNA polymerase eta (POLH, Homo sapiens, UniProt Q9Y253); substrate; pH 8.0, 37 °C, pre-steady-state, Mg2+, together with: dNTP opposite O2-Me-dT template).
`CSC[C@H]1CN(Cc2c[nH]c3c(N)ncnc23)C[C@@H]1O` has a Kd of 0.04 ± 0.01 µM (MTAP; isothermal titration calorimetry; pH 7.4, 25 °C, apo enzyme, first site set).
`B4 (α-TTP I202D)` has a Kd of 0.026 µM (alpha-tocopherol transfer protein variants; binding, fluorescence titration; together with: NBD-Toc).
`phosphatidylinositol 4,5-bisphosphate` has a Kd of 0.65 ± 0.169 µM (NF2 (Homo sapiens, UniProt P35240); isothermal titration calorimetry; pH 7.5, 25 °C).
The Kd of `O=C(O)Cc1c[nH]c2ccccc12` is reported as 0.27 ± 0.0541 µM (IAA12/TIR1 (Arabidopsis thaliana, UniProt Q38830+Q570C0); binding, radioligand saturation binding).
With `C#Cc1ccc(-c2ccccc2)cc1` the Kd was 5.4 µM (CYP2A6; binding, absorbance; pH 7.4).
With `CCCC(=O)OC[C@H](COP(=O)(O)O[C@@H]1[C@H](O)[C@H](O)[C@@H](OP(=O)(O)O)[C@H](OP(=O)(O)O)[C@H]1O)OC(=O)CCC` the Kd was 800 ± 80 µM (Abl1 SH2 domain; HSQC NMR titration; SH2 domain, 135 mM KCl).
For `C#Cc1ccc2ccccc2c1`, the Kd was 1 µM (CYP2A6; binding, absorbance; pH 7.4).
`CCCCCCCCCCCCCCCC(=O)OC[C@H](COP(=O)(O)O[C@H]1[C@H](O)[C@@H](OP(=O)(O)O)[C@H](O)[C@@H](O)[C@H]1O)OC(=O)CCCCCCCCCCCCCCC` gave a Kd of roughly 25 µM (Golgi phosphoprotein 3 (GOLPH3, Homo sapiens, UniProt Q9H4A6); surface plasmon resonance; DOPC vesicles 3 mol% lipid; pH 7.5, 25 °C).
For `B5 (α-TTP F165A)`, the Kd was 0.052 µM (alpha-tocopherol transfer protein variants; binding, fluorescence titration; together with: NBD-Toc).

A few entries again:
`C[S+](CC[C@H](N)C(=O)O)C[C@H]1O[C@@H](n2cnc3c(N)ncnc32)[C@H](O)[C@@H]1O` (stereo partly shown) gave a Kd of 0.44 ± 0.09 µM (tRNA (guanine(37)-N(1))-methyltransferase Trm5b (trm5b, Methanocaldococcus jannaschii, UniProt Q58293); binding, substrate, rapid quench burst; pH 8.0, 55 °C, together with: tRNA(Cys)).
With `CCCC(=O)OCC(COP(=O)(O)OC1C(O)C(OP(=O)(O)O)C(O)C(OP(=O)(O)O)C1O)OC(=O)CCC` (stereo not shown) the Kd was 90 ± 2 µM (Abl1 SH2 domain; HSQC NMR titration; SH2 domain, no KCl).
`CCCSC[C@H]1N[C@@H](c2c[nH]c3c(N)ncnc23)[C@H](O)[C@@H]1O` gave a Kd of 0.9 ± 0.6 µM (MTAP; binding third site, isothermal titration calorimetry).
With `C[C@]12C=CC(=O)C=C1CC[C@@H]1[C@@H]2[C@@H](O)C[C@@]2(C)[C@H]1CC[C@]2(O)C(=O)CO` the Kd was 0.026 ± 0.003 µM (mouse anti-cortisol Fab 17; native MS titration; 200 mM ammonium acetate; 1.5% DMSO, 0.5% methanol, together with: Fab 100 nM).
